Experimental data pooled from the literature.
Numbers after ± are the reported error.
Organism: HIV-1
Read-out: viral replication

| SMILES | assay | test system | setting | endpoint | result |
| --- | --- | --- | --- | --- | --- |
| O=c1[nH]c(=O)n([C@H]2C[C@H](O)[C@@H](CO)O2)cc1I | refers to: reverse transcriptase activity | human PBM cells, LAI | – | EC90 | > 100000 nM |
| Cc1cc(C)cc(S(=O)(=O)c2c(C(=O)NCCCCCNS(=O)(=O)c3ccc(Br)cc3)[nH]c3ccc(Cl)cc23)c1 | – | MT-4, IIIB | – | EC50 | 75 ± 30 nM |
| C=C(C)[C@@H]1CC[C@]2(C(=O)N3CCN(CCCCC(=O)O)CC3)CC[C@]3(C)[C@H](CC[C@@H]4[C@@]5(C)CC[C@H](O)C(C)(C)[C@@H]5CC[C@]43C)[C@@H]12 | refers to: p24 | MT4, NL4-3 | 96 h | IC50 | > 10000 nM |
| COc1ccc(S(=O)(=O)NCCCCNC(=O)c2[nH]c3ccc(Cl)cc3c2S(=O)(=O)c2cc(C)cc(C)c2)cc1 | – | MT-4, IIIB | – | EC50 | 36 ± 5 nM |
| COc1cc(-c2oc3cc(O)cc(O)c3c(=O)c2O)ccc1O | – | TZM-bl, NL4-3, CXCR4-tropic | 48 h | IC50 | 1670 nM |
| C=C(C)[C@@H]1CC[C@]2(C(=O)OCCCCCC)CC[C@]3(C)[C@H](CC[C@@H]4[C@@]5(C)CC[C@H](O)C(C)(C)[C@@H]5CC[C@]43C)[C@@H]12 | refers to: p24 | MT4, NL4-3 | 96 h | IC50 | > 10000 nM |
| Cc1cc(C)cc(S(=O)(=O)c2c(C(=O)NCCCNS(=O)(=O)c3cccnc3)[nH]c3ccc(Cl)cc23)c1 | – | MT-4, IIIB | – | EC50 | 8 ± 0.89 nM |
| CN(C)CCCn1c(=O)c2cc(Br)c3c(=O)n(CCCN(C)C)c(=O)c4c5[nH]c6ccc([N+](=O)[O-])cc6[nH]c5c(c1=O)c2c34 | – | TZM-bl, NL4-3 | range active at 80% cytotoxicity or less | therapeutic window | 15.6 to 250 nM |
| C=C(C)[C@@H]1CC[C@]2(C(=O)N3CCC(CCCC(=O)NCCCN4CCOCC4)CC3)CC[C@]3(C)[C@H](CC[C@@H]4[C@@]5(C)CC[C@H](O)C(C)(C)[C@@H]5CC[C@]43C)[C@@H]12 | refers to: p24 | MT4, NL4-3 | 96 h | IC50 | > 10000 nM |
| O=c1[nH]c(=O)n([C@H]2C[C@H](OP(=O)(O)OC[C@H]3O[C@H](O)[C@H](O)[C@@H](O)[C@@H]3O)[C@@H](CO)O2)cc1I | refers to: reverse transcriptase activity | human PBM cells, LAI | – | EC90 | > 100000 nM |
| Cc1cc(C)cc(C(=O)c2cc(Cl)ccc2OCCn2c3c(c(=O)[nH]c2=O)CCC3)c1 | – | MAGI-CCR5, Ba-L, CCR5-tropic | co-addition with virus | EC90 | 30 nM |
| Cc1ccc(S(=O)(=O)NCCCNC(=O)c2[nH]c3ccc(Cl)cc3c2S(=O)(=O)c2cc(C)cc(C)c2)cc1 | – | MT-4, IIIB | – | EC50 | 36 ± 12 nM |
| CN(C)CCCn1c(=O)c2ccc3c(=O)n(CCCN(C)C)c(=O)c4c5[nH]c6ccccc6[nH]c5c(c1=O)c2c34 | – | TZM-bl, NL4-3 | range active at 80% cytotoxicity or less | therapeutic window | 3.9 to 250 nM |
| Cc1cc(C)cc(S(=O)(=O)c2c(C(=O)NCCCCNS(=O)(=O)c3ccc(F)cc3)[nH]c3ccc(Cl)cc23)c1 | – | MT-4, IIIB | – | EC50 | 20 ± 8.5 nM |
| CN(C)CCCn1c(=O)c2cc(Br)c3c(=O)n(CCCN(C)C)c(=O)c4c5[nH]c6ccccc6[nH]c5c(c1=O)c2c34 | LTR luciferase reporter | TZM-bl, BaL | 48 h | IC50 | < 40 nM |
| C=C(C)[C@@H]1CC[C@]2(C(=O)N3CCC(CCCC(=O)N4CCOCC4)CC3)CC[C@]3(C)[C@H](CC[C@@H]4[C@@]5(C)CC[C@H](O)C(C)(C)[C@@H]5CC[C@]43C)[C@@H]12 | refers to: p24 | MT4, NL4-3 | 96 h | IC50 | > 10000 nM |
| Cc1cc(C)cc(S(=O)(=O)c2c(C(=O)NCCCNS(=O)(=O)c3ccc([N+](=O)[O-])cc3)[nH]c3ccc(Cl)cc23)c1 | – | MT-4, IIIB | – | EC50 | 50 ± 23 nM |
| Nc1nc2c(ncn2COCCOP(=O)(O)O)c(=O)[nH]1 | refers to: p24 antigen | MT-4, LAI.04 | cells preincubated with compound overnight | EC50 | 100000 ± 11000 nM |
| C#CCOC(=O)[C@]12CC[C@@H](C(=C)C)[C@@H]1[C@H]1CC[C@@H]3[C@@]4(C)CC[C@H](O)C(C)(C)[C@@H]4CC[C@@]3(C)[C@]1(C)CC2 | refers to: p24 | MT4, NL4-3 | 96 h | IC50 | > 10000 nM |
| CN(C)CCCn1c(=O)c2ccc3c(=O)n(CCCN(C)C)c(=O)c4c5[nH]c6cc(C(=O)O)ccc6[nH]c5c(c1=O)c2c34 | – | TZM-bl, NL4-3 | range active at 80% cytotoxicity or less | therapeutic window | 800 to 5000 nM |
| C=C(C)[C@@H]1CC[C@]2(C(=O)ON3C(=O)CCC3=O)CC[C@]3(C)[C@H](CC[C@@H]4[C@@]5(C)CC[C@H](O)C(C)(C)[C@@H]5CC[C@]43C)[C@@H]12 | refers to: p24 | MT4, NL4-3 | 96 h | IC50 | > 10000 nM |
| Cc1cc(C)cc(S(=O)(=O)c2c(C(=O)NCCNS(=O)(=O)C3CC3)[nH]c3ccc(Cl)cc23)c1 | – | MT-4, IIIB | – | EC50 | 4 nM |
| C=C(C)[C@@H]1CC[C@]2(C(=O)OCCC)CC[C@]3(C)[C@H](CC[C@@H]4[C@@]5(C)CC[C@H](O)C(C)(C)[C@@H]5CC[C@]43C)[C@@H]12 | refers to: p24 | MT4, NL4-3 | 96 h | IC50 | > 10000 nM |
| Cc1cn([C@H]2C=C[C@@H](CO)O2)c(=O)[nH]c1=O | refers to: reverse transcriptase activity | human PBM cells, LAI | – | EC90 | 370 nM |
| Cc1cc(C)cc(S(=O)(=O)c2c(C(=O)NCCCCCNS(=O)(=O)c3ccc(F)cc3)[nH]c3ccc(Cl)cc23)c1 | – | MT-4, IIIB | – | EC50 | 20 ± 5 nM |
| C=C(C)[C@@H]1CC[C@]2(C(=O)OCCCCCCCC)CC[C@]3(C)[C@H](CC[C@@H]4[C@@]5(C)CC[C@H](OC(=O)CC(C)(C)C(=O)O)C(C)(C)[C@@H]5CC[C@]43C)[C@@H]12 | refers to: p24 | MT4, NL4-3 | 96 h | IC50 | > 10000 nM |

For quick reference, copied from above:
| SMILES | assay | test system | setting | endpoint | result |
| --- | --- | --- | --- | --- | --- |
| C=C(C)[C@@H]1CC[C@]2(C(=O)OCCC)CC[C@]3(C)[C@H](CC[C@@H]4[C@@]5(C)CC[C@H](O)C(C)(C)[C@@H]5CC[C@]43C)[C@@H]12 | refers to: p24 | MT4, NL4-3 | 96 h | IC50 | > 10000 nM |
| Cc1cc(C)cc(C(=O)c2cc(Cl)ccc2OCCn2c3c(c(=O)[nH]c2=O)CCC3)c1 | – | MAGI-CCR5, Ba-L, CCR5-tropic | co-addition with virus | EC90 | 30 nM |
| C=C(C)[C@@H]1CC[C@]2(C(=O)ON3C(=O)CCC3=O)CC[C@]3(C)[C@H](CC[C@@H]4[C@@]5(C)CC[C@H](O)C(C)(C)[C@@H]5CC[C@]43C)[C@@H]12 | refers to: p24 | MT4, NL4-3 | 96 h | IC50 | > 10000 nM |
| CN(C)CCCn1c(=O)c2ccc3c(=O)n(CCCN(C)C)c(=O)c4c5[nH]c6cc(C(=O)O)ccc6[nH]c5c(c1=O)c2c34 | – | TZM-bl, NL4-3 | range active at 80% cytotoxicity or less | therapeutic window | 800 to 5000 nM |
